Results of several laboratories.
Each numbered part is a random draw from the data of one study; scales do not carry over between parts. Substitutions count along the parent as printed.

Set 1
Target: RNA binding protein fox-1 homolog 2, RRM domain, GST-SBP tag (RBFOX2, Homo sapiens, UniProt O43251-10, residues 100-194)
Method: RNA Bind-n-Seq
Form: RNA
Matrix: in vitro
Tested at: 365 nM
Setting: natural RNA segment, single round, ends assumed
Relative to: no-protein control
Direction: higher = stronger binding
Constant ends, left off below: GGGAGUUCUACAGUCCGACGAUC … UGGAAUUCUCGGGUGCCAA
Construct (chain): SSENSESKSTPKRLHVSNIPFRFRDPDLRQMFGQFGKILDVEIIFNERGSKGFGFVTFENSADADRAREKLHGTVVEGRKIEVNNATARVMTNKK
| Sequence | RBNS enrichment (R) |
| --- | --- |
| CCUGCCUGGCCCCACCACCUGGAGUGUUUCAGAGAAUCACUUGGUGGCAGUCACGUGGCUGACUCCUGUCUUGGGCCAUAGGCCUAGAUCCCUACCCAUGGGAAUGCAGA | 0.229 |
| AUCUGCCUUACUUGCACCCACCAGGAUAAGGACAUAAACGGUGCUCAACUUUUCUGCCACCAGACUGUUAACUUUGCUAAAUGGCUCAAGAACAGUCAGUUAGCCCUGCU | 0.302 |
| UCUUUGCUAUAAAUGAUUCAGAAUUUUGUCAGAUUUUGUAGGUUGUAUCAUCGUAAGACGGAGUUGCAUAAGGAGAUCAUAAGCUGUGUGGCUAUUGCACUAACAAGCCU | 0.589 |
| CAACUCGUCCGACUCUUCUAUGAUGUUGAGCUCCCUGACAGCUGCCCUUUACCUCACAGUCUCCAUUGGACCUCAGCCAGGACCAGCCUCUGUCUGGUCCGAGAUGACCC | 0.206 |
| UUUUUUAUAAAGCAAAAACGUGCCGUUUAAACCACUGGAUCUAUCUAAAUGCCGAUUUGAGUUCGCGACACAAUGUACUGCGUUUUCAUUCUUGUAUUUGACUAUUUAAU | 0.378 |
| CAAAUUUGGAAAAGUUGUCCCAUCCCUUCCCCCUUUGCCCCAGUGUCCCUGCUCACUUCCAGUCAGGUCUCAGCUCCACCCCACUGUUUCUUGGUCAGCCUCAGUGAUGG | 0.549 |
| AAAGGUUAGUAUCAUCAGAUAGCAUCUUAUACGAGUAAUAUGCCUGCUAUUUGAAGUGUAAUUGAGAAGGAAAAUUUUAGCGUGCUCACUGACCUGCCUGUAGCCCCAGU | 0.291 |
| UGUUUUGCGGGGAGAGGUGGCGGGGUGGGAACCGCGUCAUUCCAAAGUGGAUCUGCGGUGAAGCCAAGGAAGCCCCAUAGUUAUCAGCCACCUAAACCAGGGACCCAGCC | 0.728 |
| UUUACCAAAUUUUACCUAGAAUUUUAGGACCAAAUGGUUCUCACUCUUUAUGCUGCAAAGACCUGGAUGAUGUUUGGUAACUAUAGAAAAAUAGAAAUUACACUCAGGAU | 0.476 |
| CAAUGUGAGUCCCAGAGCCCGCUUUUGUUCUUCCCCACAAUUCCAUUACUAAGAAACACAUCAAAUAAACUGACUUUUUCCCCCCAAUAAAAGCUCUUCUUUUUUAAUAU | 0.86 |
| CAGCCUUUAAGCACCCAUCGAGCACGGGCGGGAGCAGGGCUGUGGCCCAGCGCCGCCUUUUCACAUUUUUUGAGCCAUGGACAUGGGUUGUAAAAAUUUGUGGGGAGUAG | 0.296 |

Set 2
Target: Interferon regulatory factor 7, full length, phosphomimetic (IRF7, Homo sapiens, UniProt Q92985, residues 1-503, S101K/S471D/S472D/S475D/S476D/S477D/S483D/S484D/S487D)
Method: protein-binding microarray
Form: double-stranded DNA, one strand shown
Matrix: in vitro
Tested at: 250 nM
Setting: 60-bp whole probe
Together with: salmon DNA 0.4 mg/ml
Relative to: random background probes
Direction: higher = stronger binding
Constant ends, left off below: GCCTAGCAC … GTCTTGATTCGCTTGACGCTGCTG
Construct (chain): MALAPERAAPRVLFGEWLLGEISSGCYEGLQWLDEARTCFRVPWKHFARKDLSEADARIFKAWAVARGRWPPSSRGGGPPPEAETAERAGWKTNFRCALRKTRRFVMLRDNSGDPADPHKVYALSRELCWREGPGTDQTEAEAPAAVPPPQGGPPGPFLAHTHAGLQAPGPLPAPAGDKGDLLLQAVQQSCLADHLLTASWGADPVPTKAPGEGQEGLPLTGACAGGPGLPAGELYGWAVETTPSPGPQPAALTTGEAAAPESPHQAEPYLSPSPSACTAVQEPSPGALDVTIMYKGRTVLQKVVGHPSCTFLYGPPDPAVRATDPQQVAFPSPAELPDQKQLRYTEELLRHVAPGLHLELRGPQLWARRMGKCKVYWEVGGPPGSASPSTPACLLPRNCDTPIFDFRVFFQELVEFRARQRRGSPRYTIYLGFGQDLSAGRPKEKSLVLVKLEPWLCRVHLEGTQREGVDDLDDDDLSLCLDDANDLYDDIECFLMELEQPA
| Sequence | log fluorescence [z-score] |
| --- | --- |
| GACGGAATGGACTATCGGGACGTGCTA | -0.388 |
| GACGATATCGGGTTGCGAGACGTGCTA | -0.00396 |
| GACGGATTCGGACTGGGGACGTGCTAG | 0.183 |
| GACGGTTTCGGCATCGGGACGTGCTAG | 3.06 |
| GAATCTCTCATGTTACATTTGTGCTAG | 0.921 |
| TTAGGACGGGGTATCGGTTAGTGCTAG | 0.516 |
| GACGAGATCGGGTTTCGAGACGTGCTA | 3.49 |
| CACGGTTCCCTTTTCCTGACGTGCTAG | 2.96 |
| TTAGATCTTAGACTGGATTAGTGCTAG | -0.267 |
| TTAGGTATCGACAGTGGGTTAGTGCTA | -0.416 |
| GGTCAGTCAGGTCACTTCTGGTGCTAG | -0.871 |
| GATGGTATCCTACTGCTGACGTGCTAG | -0.41 |

Set 3
Target: ABI1, truncated, D143A, DHFR fusion (Arabidopsis thaliana)
Method: DHFR PCA, deep sequencing
Matrix: yeast
Setting: methotrexate growth selection, single substitutions
Together with: (+)-ABA 17 µM
Relative to: wild-type fitted maximum
Direction: higher = stronger binding
Parent: PYL1, truncated, DHFR fusion (Arabidopsis thaliana); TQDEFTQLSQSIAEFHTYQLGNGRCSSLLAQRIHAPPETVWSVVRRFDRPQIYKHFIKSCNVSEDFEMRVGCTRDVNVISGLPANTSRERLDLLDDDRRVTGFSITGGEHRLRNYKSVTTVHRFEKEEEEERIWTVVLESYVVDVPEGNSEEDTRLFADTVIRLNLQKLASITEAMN; partner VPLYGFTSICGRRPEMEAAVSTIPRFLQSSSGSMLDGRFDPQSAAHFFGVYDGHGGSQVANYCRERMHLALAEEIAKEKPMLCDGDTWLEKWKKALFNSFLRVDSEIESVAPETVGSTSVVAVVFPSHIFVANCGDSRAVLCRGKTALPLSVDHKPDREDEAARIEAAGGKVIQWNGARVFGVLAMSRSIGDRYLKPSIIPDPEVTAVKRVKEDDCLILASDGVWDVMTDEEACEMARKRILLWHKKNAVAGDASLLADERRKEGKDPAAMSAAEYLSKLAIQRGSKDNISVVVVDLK
| Change | relative binding score [%] |
| --- | --- |
| A30I | 80.5 |
| S9A | 85.5 |
| H55A | 97.3 |
| L112S | 1.95 |
| F56G | -0.785 |
| E38A | 71 |
| W41E | -4.24 |

Other studies, line by line
| Molecule | target | test | system | conditions | how to read | endpoint | value |
| --- | --- | --- | --- | --- | --- | --- | --- |
| PhoQ, residues 284 288 289 292 302 303 ALSMDL | PhoP, residues 12 14 15 18 19 LHHSG (Escherichia coli, UniProt P23836) | Sort-seq, item: YFP reporter | E. coli | PhoQ-PhoP variant library, together with: 10 µM Mg2+ | relative to: high Mg2+ state, higher = stronger signaling | fold induction | 10.3 |
